Results from different studies.
Every numbered part comes from another study and shows a few of its results, in no order. Substitutions count along the parent as printed.
Sequence of UniProt Q93WC4 (whole entry, looked up): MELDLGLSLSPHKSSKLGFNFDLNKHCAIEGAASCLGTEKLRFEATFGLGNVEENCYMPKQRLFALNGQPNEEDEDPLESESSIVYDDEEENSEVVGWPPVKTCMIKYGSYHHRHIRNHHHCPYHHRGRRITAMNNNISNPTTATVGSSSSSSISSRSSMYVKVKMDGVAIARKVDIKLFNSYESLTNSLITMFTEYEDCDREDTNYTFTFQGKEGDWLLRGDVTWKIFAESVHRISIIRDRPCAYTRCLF
Sequence of UniProt Q9XFM0 (whole entry, looked up): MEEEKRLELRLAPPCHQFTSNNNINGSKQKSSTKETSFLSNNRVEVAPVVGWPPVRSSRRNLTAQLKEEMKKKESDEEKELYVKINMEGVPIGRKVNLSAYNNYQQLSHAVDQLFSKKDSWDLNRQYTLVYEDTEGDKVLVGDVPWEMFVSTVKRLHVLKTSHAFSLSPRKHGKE
Sequence of UniProt Q8H174 (whole entry, looked up): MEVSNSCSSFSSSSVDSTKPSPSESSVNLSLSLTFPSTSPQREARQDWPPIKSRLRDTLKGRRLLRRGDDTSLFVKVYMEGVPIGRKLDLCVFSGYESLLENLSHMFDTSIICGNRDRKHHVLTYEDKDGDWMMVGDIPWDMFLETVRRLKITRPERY
Sequence of UniProt Q9ZTX9 (whole entry, looked up): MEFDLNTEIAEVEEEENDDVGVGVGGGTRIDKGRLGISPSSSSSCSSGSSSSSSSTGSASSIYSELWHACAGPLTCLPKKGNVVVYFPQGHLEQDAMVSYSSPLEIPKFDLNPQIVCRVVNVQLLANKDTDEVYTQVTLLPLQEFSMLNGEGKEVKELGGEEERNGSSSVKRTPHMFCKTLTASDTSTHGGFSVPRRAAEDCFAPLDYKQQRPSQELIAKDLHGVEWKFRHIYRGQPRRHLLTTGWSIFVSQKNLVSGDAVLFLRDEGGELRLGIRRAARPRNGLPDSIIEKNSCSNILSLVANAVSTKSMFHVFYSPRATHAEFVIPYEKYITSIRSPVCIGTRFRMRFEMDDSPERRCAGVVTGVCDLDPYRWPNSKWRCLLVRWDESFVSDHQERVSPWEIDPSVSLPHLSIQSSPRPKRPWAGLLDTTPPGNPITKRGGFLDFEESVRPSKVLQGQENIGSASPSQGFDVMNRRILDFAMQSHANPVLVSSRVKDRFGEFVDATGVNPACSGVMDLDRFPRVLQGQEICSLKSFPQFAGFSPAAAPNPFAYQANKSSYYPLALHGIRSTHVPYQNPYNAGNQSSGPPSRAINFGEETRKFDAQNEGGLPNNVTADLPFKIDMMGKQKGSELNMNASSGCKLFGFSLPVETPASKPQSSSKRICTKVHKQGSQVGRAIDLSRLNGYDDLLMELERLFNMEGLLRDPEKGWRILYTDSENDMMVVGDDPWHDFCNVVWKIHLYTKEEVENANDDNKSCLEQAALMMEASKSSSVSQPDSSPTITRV
Sequence of UniProt Q9ZTX8 (whole entry, looked up): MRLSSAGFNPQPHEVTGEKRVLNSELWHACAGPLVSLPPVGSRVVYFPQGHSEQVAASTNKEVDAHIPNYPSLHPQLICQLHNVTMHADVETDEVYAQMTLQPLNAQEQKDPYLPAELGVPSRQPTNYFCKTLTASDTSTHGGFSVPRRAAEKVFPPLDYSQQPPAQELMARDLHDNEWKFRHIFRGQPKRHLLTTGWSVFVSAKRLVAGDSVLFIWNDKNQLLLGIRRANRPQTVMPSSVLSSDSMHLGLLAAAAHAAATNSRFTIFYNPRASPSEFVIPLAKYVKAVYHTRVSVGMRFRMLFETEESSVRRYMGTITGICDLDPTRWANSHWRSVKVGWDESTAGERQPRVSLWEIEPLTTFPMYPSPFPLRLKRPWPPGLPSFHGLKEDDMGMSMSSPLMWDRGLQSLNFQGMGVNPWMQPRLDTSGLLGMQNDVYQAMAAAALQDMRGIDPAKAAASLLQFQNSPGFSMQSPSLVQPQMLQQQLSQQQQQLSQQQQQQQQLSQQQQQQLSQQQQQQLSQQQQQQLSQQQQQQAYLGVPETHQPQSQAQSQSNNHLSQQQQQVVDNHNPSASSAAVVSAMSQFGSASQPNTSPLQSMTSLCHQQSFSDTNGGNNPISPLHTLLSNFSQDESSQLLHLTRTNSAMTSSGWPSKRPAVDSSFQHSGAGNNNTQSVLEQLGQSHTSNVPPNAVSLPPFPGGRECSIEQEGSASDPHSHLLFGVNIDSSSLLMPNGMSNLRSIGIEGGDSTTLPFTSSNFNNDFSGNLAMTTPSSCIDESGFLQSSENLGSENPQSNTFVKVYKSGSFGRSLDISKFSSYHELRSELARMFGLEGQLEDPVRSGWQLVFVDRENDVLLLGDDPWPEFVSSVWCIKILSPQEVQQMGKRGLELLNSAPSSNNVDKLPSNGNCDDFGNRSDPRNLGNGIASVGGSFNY
Sequence of UniProt Q8RYC6 (whole entry, looked up): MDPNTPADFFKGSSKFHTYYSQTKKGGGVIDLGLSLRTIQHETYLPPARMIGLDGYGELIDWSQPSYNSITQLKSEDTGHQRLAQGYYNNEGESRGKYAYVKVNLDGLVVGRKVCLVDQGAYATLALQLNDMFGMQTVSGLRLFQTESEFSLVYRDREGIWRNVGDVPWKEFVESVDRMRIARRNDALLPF

Block 1 — method: protein binding microarray; molecule type: double-stranded DNA, one strand shown; medium: in vitro; tested at: not given; relative to: not given; reading: higher = stronger binding
Target: Histone acetyltransferase KAT6A, winged helix 1, GST fusion (KAT6A, Homo sapiens, UniProt Q92794, residues 1-85)
Notes: 8-mer, flanks averaged, mean of 2 arrays, mostly near background
Construct (chain): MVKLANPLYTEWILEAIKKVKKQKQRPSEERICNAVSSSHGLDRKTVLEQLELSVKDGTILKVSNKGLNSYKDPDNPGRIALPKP
| Strand | E-score |
| --- | --- |
| CGAGTGAG | -0.0108 |
| CGAGTTAC | 0.04 |
| ACAATTAC | -0.162 |
| TCTCCACA | -0.28 |
| GCCTCATA | -0.0938 |
| ATTTGTTC | -0.0096 |
| CCTAAGAC | -0.122 |
| ACTAAAGC | -0.0296 |
| ACGTGCGA | 0.122 |
| ATTTAAAC | -0.226 |
| AGATACAA | -0.13 |
| TTACCTAA | -0.225 |
| ATAAATAA | -0.041 |
| GGCATCCC | 0.0791 |
| AATCGGGA | 0.0926 |
| AGGTACAC | -0.0535 |
| GTGTGGCA | -0.173 |
| GTAGTTCA | -0.13 |
| CCACGAGG | -0.159 |
| GCGACGGA | 0.374 |
| AAAAAAGG | -0.0894 |
| AAGAAACG | -0.0786 |

Block 2 — target: CCNB2, cyclin fold, Cln2 fusion (human); method: yeast growth competition, sequencing; medium: yeast; notes: weak parent motif; relative to: not given; reading: higher = stronger binding
Parent: WEE1 docking peptide (human); HKTFRKLRLFDTP
| Change | normalised enrichment score |
| --- | --- |
| HKTFRKLRTFDTP [L9T] | 0.447 |
| HKTFAKLRLFDTP [R5A] | -0.57 |
| HKTFRKLRLFDTI [P13I] | 0.285 |
| DKTFRKLRLFDTP [H1D] | 0.749 |
| HCTFRKLRLFDTP [K2C] | 0.22 |
| HKTFRKLYLFDTP [R8Y] | 0.704 |
| HKTFRKLRLFDEP [T12E] | 0.651 |
| HKTFRKLRLFDPP [T12P] | 0.932 |
| HETFRKLRLFDTP [K2E] | 0.304 |
| HKTFVKLRLFDTP [R5V] | -0.348 |
| HKTFRKLRLFVTP [D11V] | 0.417 |
| FKTFRKLRLFDTP [H1F] | -0.173 |
| HKTFRKLRLHDTP [F10H] | 0.484 |
| HKTFRKLRLFDTD [P13D] | 0.664 |
| HKTFRKGRLFDTP [L7G] | 1.27 |
| HKTFRKLRPFDTP [L9P] | 0.435 |
| HKTTRKLRLFDTP [F4T] | 0.831 |
| HKTFRKLRLFDTN [P13N] | 1.08 |
| HKTFRKLRLCDTP [F10C] | 0.489 |
| HKTFRKLRLYDTP [F10Y] | 0.319 |
| HKTFRYLRLFDTP [K6Y] | 0.479 |
| HKTFRKLRLVDTP [F10V] | 0.373 |
| HKTFRGLRLFDTP [K6G] | 0.427 |

Block 3 — method: DHFR PCA, deep sequencing; medium: yeast; added: (+)-ABA 2500 µM; relative to: wild-type fitted maximum; reading: higher = stronger binding
Target: ABI1, truncated, D143A, DHFR fusion (Arabidopsis thaliana)
Notes: methotrexate growth selection, single substitutions
Parent: PYL1, truncated, DHFR fusion (Arabidopsis thaliana); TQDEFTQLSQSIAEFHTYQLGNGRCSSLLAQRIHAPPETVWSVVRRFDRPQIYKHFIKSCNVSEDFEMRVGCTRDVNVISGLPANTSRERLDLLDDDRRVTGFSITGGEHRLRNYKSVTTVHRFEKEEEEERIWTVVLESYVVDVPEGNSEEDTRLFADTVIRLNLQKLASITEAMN; partner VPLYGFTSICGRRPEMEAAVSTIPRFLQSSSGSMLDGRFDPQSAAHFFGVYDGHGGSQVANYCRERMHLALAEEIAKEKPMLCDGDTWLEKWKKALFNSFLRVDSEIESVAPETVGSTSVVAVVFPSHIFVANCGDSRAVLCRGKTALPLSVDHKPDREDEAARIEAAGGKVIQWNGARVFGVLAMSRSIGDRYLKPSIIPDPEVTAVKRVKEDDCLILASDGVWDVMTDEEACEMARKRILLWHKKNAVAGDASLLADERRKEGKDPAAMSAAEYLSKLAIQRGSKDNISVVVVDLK
| Change | relative binding score |
| --- | --- |
| F157L | 92.9% |
| Q167I | 90.7% |
| E38K | 95.3% |
| R132D | 102% |
| G107V | 71.4% |
| W41N | -18.9% |
| L93M | 87.9% |
| C25N | 56.6% |
| D95Q | 94% |
| D95T | 68% |
| V40C | 81.7% |
| A84H | 68.2% |
| V43C | 87.2% |
| V161F | 94.9% |
| E130P | 107% |
| D95C | 80.7% |
| V121Q | -1.2% |
| E139F | 69% |

Block 4 — Sequence: B1 (IAA14); method: two-hybrid; reading: higher = firmer interaction
B1: IAA14 (Arabidopsis thaliana, UniProt Q38832); chain MNLKETELCLGLPGGTETVESPAKSGVGNKRGFSETVDLKLNLQSNKQGHVDLNTNGAPKEKTFLKDPSKPPAKAQVVGWPPVRNYRKNVMANQKSGEAEEAMSSGGGTVAFVKVSMDGAPYLRKVDLKMYTSYKDLSDALAKMFSSFTMGSYGAQGMIDFMNESKVMDLLNSSEYVPSYEDKDGDWMLVGDVPWPMFVESCKRLRIMKGSEAIGLAPRAMEKFKNRS
| partner | scale | positive tests |
| --- | --- | --- |
| IAA29 (Arabidopsis thaliana, UniProt Q93WC4) | relative to: out of 4 tests | 0 |
| ARF4 660-788 (Arabidopsis thaliana, UniProt Q9ZTX9) | relative to: out of 4 tests | 0 |
| ARF6 790-935 (Arabidopsis thaliana, UniProt Q9ZTX8) | relative to: out of 4 tests | 1 |
| IAA28 (Arabidopsis thaliana, UniProt Q9XFM0) | relative to: out of 4 tests | 3 |
| IAA31 (Arabidopsis thaliana, UniProt Q8H174) | relative to: out of 2 tests | 1 |
| IAA32 (Arabidopsis thaliana, UniProt Q8RYC6) | relative to: out of 4 tests | 1 |
| IAA16 (Arabidopsis thaliana, UniProt O24407) | relative to: out of 4 tests | 3 |

Block 5 — method: RNA Bind-n-Seq; molecule type: RNA; medium: in vitro; tested at: 100 nM; relative to: input RNA pool; reading: higher = stronger binding
Target: RING finger protein unkempt homolog, zinc fingers 1-6, SBP tag (UNK, Homo sapiens, UniProt Q9C0B0, residues 30-357)
Sequence of UniProt Q9C0B0 (30-357, looked up): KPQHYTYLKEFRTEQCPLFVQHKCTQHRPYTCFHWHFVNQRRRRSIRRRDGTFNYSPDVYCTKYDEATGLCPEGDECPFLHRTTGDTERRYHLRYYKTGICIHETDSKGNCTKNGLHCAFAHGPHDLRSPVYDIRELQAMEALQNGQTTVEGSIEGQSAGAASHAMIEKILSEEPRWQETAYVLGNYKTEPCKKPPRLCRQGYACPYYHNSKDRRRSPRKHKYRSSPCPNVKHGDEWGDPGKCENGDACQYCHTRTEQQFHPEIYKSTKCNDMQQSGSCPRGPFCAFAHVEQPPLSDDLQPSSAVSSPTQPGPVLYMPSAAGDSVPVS
Notes: RNA with constant flanks, vertebrate orthologous sites, ends assumed
All sequences stand within: GGGAGUUCUACAGUCCGACGAUC … CAACAGAGGAUUGAGCAUCA
| Strand | bound/input enrichment [ratio] |
| --- | --- |
| UACAAUAAUGAAAACCUACAGAAAUUUUAUUUUCAUUUUCCCCUUAGACAUACUUAGACUCUCUGCCCCUACCCCCAGGCAGAUCAUUCUGAGUGUGCGAGUGUGUUGUGUGUGCACAUG | 0.525 |
| UUUCUCCCCCCUCCCAAAGGGAGUGGGGAGAGCCCAGGAUGACCCUCAGCUGUUCCAAUCCAGUAUUUUUUUUUCUUUUUUAAAAUUACUGUAUUUAUUAUGACGAUGGUGACUCCCCAG | 0.5 |
| UAAUGUCUUUUUAUUUAUUGAAGAUCGUUUUGUGCUAAGAAUUGUGUUAGAUUUAAAAAUUAGAGGAUUAAUUCCUCUUUGUUGUGUUGAUUUCAUUGUUGAAAAUAAAUAGAACUUUGU | 0.741 |
| CCCGCUGCUCCUGGGUGCGUGACUGAGGGUGAAGCAUCCACCAGCGCUGCAAGGGGUCCAUAGUAUUUUUUUGCUGCCUCAGUCCCCAGAGCCUUCAAGCAGAAGUGGCAGUAGAUUGUU | 1.17 |
| CUUUAUGAGAUUUGGACCUUGGAGCCGAACCAGCAAAAGUAAAGCCGACUUGUAAAAUUAUAGCCAUAUGCAGCUGUACAACAAUGCUACUACAAGCAGCUGUGUUAAAAUAUUUAUAAG | 0.548 |
| GAGUGCUUAAGCUGCCAACAGUUAGAAGAUGCUAUUUAUUUGUGUCUGUAAGUUUGUACAUAGUAAUGCCAGCCUUGUUGCUGAAUUUUUUAUUUGGGGGGAGAUGACUUUGAAUUUUGU | 2.65 |
| CUACAAUAAUGAAAACCUACAGAAAUUUUUUUUUGUAUUUUUCAUUUUCCCCUUAGGCAUAAUUAGUCUUUUUUCCCCAGGCAGAUCAUUCUGAGUGUGCGAGUGUGUGUGCACAUGUUA | 1.31 |
| GAGCUAAAGGAGUUAGCAUCUUUAUUUUUGUAUCAAAGAUAAAGGUUAUUUUGAAACUAUUAGGAUUUUUACACAAUUCUGAAAUCUGUUGCUUUUGUAAACAAAUUGUUUGAUCUUAGU | 0.443 |
| CAUUGUAUUAAUGAAAAUUGCCUUAAUUAUAAACUACACAUAACGAUAACUCGUUUGCACUAACAGAUUCAGUUACUGUCACUAUUAAAUUAUCUGCUUUUCUGAUACCUGAAGCCAAUC | 0.714 |
| GCAAAUCCAAUCACUGUGAUAUUUAAAAUAUGCACAGUCCUAAUUCUUUCUUGAUGAUCCUAGUAUUUUUCUAGCUGUAUCUUUAUAUCUCAUACUGUUAUUUAUCAGUUUUGUUCCCCU | 0.94 |
| UGUAUUCGUGUCAUACCAGCAUAUUAACUUCGUCUGUGCACAGCUUCCGGUGUUACCGUCUAGUUAGAUUUUUAUUUAAAAUAUGAAAAACUGCUUUUCCCAAGAUGUUUUUUAAAGACA | 0.978 |

Excerpt of the above (block 1):
| Strand | E-score |
| --- | --- |
| ACAATTAC | -0.162 |
| TCTCCACA | -0.28 |
| GCCTCATA | -0.0938 |
| ATTTGTTC | -0.0096 |
| CCTAAGAC | -0.122 |
